Assay results pooled from the literature.
Each line is one published result; not all experiments were run side by side. Numbers after ± are the reported error.
Organism: Salmonella typhimurium

| Structure (SMILES) | test | system | conditions | how to read | measurement | result |
| --- | --- | --- | --- | --- | --- | --- |
| O=[N+]([O-])c1ccc(NC2CCNCC2)c(C(F)(F)F)c1 | genotoxicity, SOS/umu test | TA1535/pSK1002 | 0.063 mg/mL, 4 h, with S9, full range | – | induction factor | 0.6 |
| COc1cccc(-c2n[nH]c(SCc3ccccn3)n2)c1OC | Ames test, preincubation | TA100 | 0.13 mg/plate, without S9 | – | revertant colonies per plate | 128 |
| CC(=O)N1CCC(C(=O)N2CCN3C(=O)c4cc(-c5ccccc5)ccc4NC(=O)C3C2)CC1 (stereo not shown) | – | TA1537 | 500 µg/plate | relative to: vehicle | fold increase in revertants | 1.2 |
| O=[N+]([O-])c1ccc(N2CCC(NCCC(O)c3ccc(F)c4ccccc34)CC2)c(C(F)(F)F)c1 (stereo not shown) | genotoxicity, SOS/umu test | TA1535/pSK1002 | 0.002 mg/mL, 4 h, without S9, full range | – | induction factor | 0.52 |
| CN(N=O)c1ccc(F)cc1 | mutagenicity, Ames plate incorporation | TA1537 | 500 µg/plate, 3 d, without S9, methanol | – | revertant colonies per plate | 8 |
| N#C[C@@]1(n2ccc(N)nc2=O)O[C@H](CO)[C@@H](O)[C@H]1O | – | TA1537 | 50 µM, without S9 | – | viability | 92% |
| CC(C)N(N=O)C(C)C | mutagenicity, Ames plate incorporation | TA100 | 500 µg/plate, without S9, methanol | – | revertant colonies per plate | 144 ± 22 |
| Cc1cc(C(=O)NC(C)(C)COc2cccc3c2C(N)=NS(=O)(=O)N3)cc(C)n1 | Ames test, confirmatory | TA1537 | 333 µg/plate, together with: rat liver S9 | relative to: solvent control | revertant ratio | 1.1 |
| O=[N+]([O-])c1ccc(N2CCN(CCC(O)c3ccc(F)cc3)CC2)c(C(F)(F)F)c1 (stereo not shown) | genotoxicity, SOS/umu test | TA1535/pSK1002 | 0.125 mg/mL, 4 h, with S9, lower range | – | induction factor | 0.3 |
| CC(C)N(C)N=O | mutagenicity, Ames plate incorporation | TA1537 | 2500 µg/plate, 3 d, without S9, methanol | – | revertant colonies per plate | 9 ± 5 |

For quick reference, copied from above:
| Structure (SMILES) | test | system | conditions | how to read | measurement | result |
| --- | --- | --- | --- | --- | --- | --- |
| O=[N+]([O-])c1ccc(N2CCC(NCCC(O)c3ccc(F)c4ccccc34)CC2)c(C(F)(F)F)c1 (stereo not shown) | genotoxicity, SOS/umu test | TA1535/pSK1002 | 0.002 mg/mL, 4 h, without S9, full range | – | induction factor | 0.52 |
